Assay results of several laboratories.
Lines come from different studies, so protocols differ.

| Compound | target | assay | test system | setting | how to read | measurement | result |
| --- | --- | --- | --- | --- | --- | --- | --- |
| COC(=O)Nc1nc2ccc(C(=O)c3ccccc3)cc2[nH]1 | biotinylated rabbit IgG | – | – | 11-point dose-response, protein A and streptavidin binding | – | maximum response | -3.4% |
| O=C(Cc1cccc(Cl)c1)N[C@H]1CCOC1=O | ExpR2 (Pectobacterium carotovorum) | cellulase activity, antagonist | Pectobacterium carotovorum, single-ExpR2 strain | 5 µM, 4 h, together with: OHHL 5 µM | – | inhibition | 54% |
| O=C(Nc1cccnn1)N1CCN([C@@H]2CCOc3cc(C(F)(F)F)ccc32)CC1 | L-type calcium channel, verapamil site | binding | – | 20 µM | – | inhibition | -6% |
| COP(=S)(OC)Oc1ccc([N+](=O)[O-])c(C)c1 | nanobody A4 | binding, ic-ELISA | – | – | – | IC50 | > 10 µM |
| COc1cc(Nc2ncc(F)c(Nc3ccc4c(n3)NC(=O)C(C)(C)O4)n2)cc(OC)c1OC | VEGF | – | – | – | – | IC50 | > 10 µM |
| CCOP(=S)(OCC)SCCSCC | nanobody A4 | binding, ic-ELISA | – | – | – | IC50 | > 10 µM |
| O=C(Cc1ccc2ccccc2c1)N[C@H]1CCOC1=O | ExpR2 (Pectobacterium carotovorum) | cellulase activity, agonist | Pectobacterium carotovorum, single-ExpR2 strain | 200 µM, 4 h | reference: OHHL | activation | 56% |
| N.N.[Cl][Pt][Cl] | biotinylated rabbit IgG | – | – | 11-point dose-response, protein A and streptavidin binding | – | maximum response | -95.5% |
| CCOP(=S)(OCC)O/N=C(\C#N)c1ccccc1 | nanobody A4 | ic-ELISA | – | concentration not given | reference: coumaphos IC50 over compound IC50, mass basis | cross-reactivity | 6% |
| Nc1nc2c(ncn2[C@@H]2O[C@@H]3COP(=O)(O)O[C@H]4[C@@H](O)[C@H](n5cnc6c(N)ncnc65)O[C@@H]4COP(=O)(O)O[C@@H]2[C@@H]3O)c(=O)[nH]1 | STING (human) | agonist, confocal microscopy | HeLa Kyoto | concentration not given | – | time to STING Golgi translocation | ~30 min |
| O=C(Cc1cccc(Br)c1)N[C@H]1CCOC1=O | ExpR2 (Pectobacterium carotovorum) | cellulase activity, antagonist | Pectobacterium carotovorum, single-ExpR2 strain | 5 µM, 4 h, together with: OHHL 5 µM | – | inhibition | 59% |
| COC(=O)Nc1nc2ccc([S+]([O-])c3ccccc3)cc2[nH]1 (stereo not shown) | biotinylated rabbit IgG | – | – | 11-point dose-response, protein A and streptavidin binding | – | maximum response | 13% |
| O=C(Cc1ccc(I)cc1)N[C@H]1CCOC1=O | ExpR2 (Pectobacterium carotovorum) | cellulase activity, agonist | Pectobacterium carotovorum, single-ExpR2 strain | 200 µM, 4 h | reference: OHHL | activation | 19% |
| CCOP(=S)(OCC)Oc1nc(Cl)c(Cl)cc1Cl | nanobody A4 | ic-ELISA | – | concentration not given | reference: coumaphos IC50 over compound IC50, molar basis | cross-reactivity | < 1% |
| O=C(Cc1ccc(Br)cc1)N[C@H]1CCOC1=O | ExpR2 (Pectobacterium carotovorum) | cellulase activity, antagonist | Pectobacterium carotovorum, single-ExpR2 strain | 5 µM, 4 h, together with: OHHL 5 µM | – | inhibition | 62% |
| CCOP(=S)(OCC)SCn1c(=O)oc2cc(Cl)ccc21 | nanobody A4 | ic-ELISA | – | concentration not given | reference: coumaphos IC50 over compound IC50, mass basis | cross-reactivity | 3% |

Some of these lines once more:
| Compound | target | assay | test system | setting | how to read | measurement | result |
| --- | --- | --- | --- | --- | --- | --- | --- |
| O=C(Cc1ccc(I)cc1)N[C@H]1CCOC1=O | ExpR2 (Pectobacterium carotovorum) | cellulase activity, agonist | Pectobacterium carotovorum, single-ExpR2 strain | 200 µM, 4 h | reference: OHHL | activation | 19% |
| CCOP(=S)(OCC)Oc1nc(Cl)c(Cl)cc1Cl | nanobody A4 | ic-ELISA | – | concentration not given | reference: coumaphos IC50 over compound IC50, molar basis | cross-reactivity | < 1% |
